Experimental data pooled from the literature.
Lines come from different studies, so protocols differ. ± marks the error that the study gave.
Target: Tyrosine-protein kinase Blk (BLK, Homo sapiens, UniProt P51451)
Chain of UniProt P51451 (whole entry, looked up): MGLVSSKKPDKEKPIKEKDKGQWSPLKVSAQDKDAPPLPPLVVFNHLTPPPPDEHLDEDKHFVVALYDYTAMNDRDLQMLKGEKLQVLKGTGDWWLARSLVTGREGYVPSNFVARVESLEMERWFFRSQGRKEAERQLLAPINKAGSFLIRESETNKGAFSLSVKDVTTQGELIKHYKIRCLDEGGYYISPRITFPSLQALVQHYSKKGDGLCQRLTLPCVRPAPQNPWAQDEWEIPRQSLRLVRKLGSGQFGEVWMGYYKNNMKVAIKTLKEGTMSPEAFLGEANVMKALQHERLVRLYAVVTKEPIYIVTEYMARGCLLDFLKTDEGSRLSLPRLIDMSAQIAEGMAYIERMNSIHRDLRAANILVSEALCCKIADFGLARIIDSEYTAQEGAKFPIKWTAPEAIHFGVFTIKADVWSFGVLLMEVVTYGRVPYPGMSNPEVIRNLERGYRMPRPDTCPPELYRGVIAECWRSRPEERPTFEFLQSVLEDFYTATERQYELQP

Structure (SMILES) = C#Cc1cccc(Oc2ccc(-c3nn([C@@H]4CCCN(C(=O)C=C)C4)c4ncnc(N)c34)cc2)c1; assay = ABPP-SILAC; conditions = 1 µM, 1 h; how to read = reference: DMSO; endpoint = SILAC ratio; result = 20
Structure (SMILES) = C=CC(=O)N1CCC([C@@H]2CCNc3c(C(N)=O)c(-c4ccc(Oc5ccccc5)cc4)nn32)CC1; assay = kinase activity, inhibitor, HotSpot radiometric; conditions = 100 nM, together with: ATP 10 µM; endpoint = remaining activity; result = -0.4%
Structure (SMILES) = Cc1cc(Nc2cc(N3CCN(C)CC3)nc(Sc3ccc(NC(=O)C4CC4)cc3)n2)[nH]n1; assay = kinase activity, KinaseProfiler; conditions = 0.03 µM, species human; how to read = reference: control; endpoint = remaining activity; result = 98%
Structure (SMILES) = [2H]c1cc(C)c(NC(=O)c2cnc(Nc3cc(N4CCC(O)CC4)nc(C)n3)s2)c(Cl)c1; conditions = 0.001 µM; endpoint = inhibition; result = > 50%
Structure (SMILES) = COc1cc(-c2cncc3c2CN(C)Cc2cc(N4CCNCC4)ccc2-3)cc(OC)c1OC; assay = kinase activity; conditions = 1 µM, human enzyme, together with: ATP 10 µM; how to read = reference: DMSO control; endpoint = remaining activity; result = 85%
Structure (SMILES) = [2H]c1cc(C)c(NC(=O)c2cnc(Nc3cc(N4CCCCC4)nc(C)n3)s2)c(Cl)c1; conditions = 0.0001 µM; endpoint = inhibition; result = > 50%
Structure (SMILES) = COc1ccc(F)cc1C(=O)NCc1ccc(-c2nn([C@@H](C)C(F)(F)F)c(N)c2C(N)=O)cc1; assay = kinase activity, inhibitor, HotSpot radiometric; conditions = 100 nM, together with: ATP 10 µM; endpoint = remaining activity; result = 81.7 ± 0.7%
Structure (SMILES) = C#Cc1cc(-c2cc(Nc3nc(N[C@@H](C)c4ccc(F)cn4)ncc3Cl)n[nH]2)ccc1C=O; assay = enzyme activity, inhibitor; conditions = 0.2 µM; endpoint = inhibition; result = 87.7%
Structure (SMILES) = C=CC(=O)N1CCC[C@@H](n2nc(-c3ccc(Oc4ccccc4)cc3)c3c(N)ncnc32)C1; assay = kinase activity, inhibitor, HotSpot radiometric; conditions = 100 nM, together with: ATP 10 µM; endpoint = remaining activity; result = 0.6 ± 0.2%
Structure (SMILES) = O=C(NC1CCC1)c1ccc2nc(-c3cccc(NS(=O)(=O)NCCN4CCCCC4)c3)cn2c1; assay = enzyme activity; conditions = 10 µM; endpoint = remaining activity; result = 84%
